Assay results collected from several papers.
Parts stem from different laboratories: compare values within a part only. Substitutions count along the parent as printed.

Sample 1
Target: RNA binding protein fox-1 homolog 2, RRM domain, GST-SBP tag (RBFOX2, Homo sapiens, UniProt O43251-10, residues 100-194)
Method: RNA Bind-n-Seq
Form: RNA
Matrix: in vitro
Tested at: 365 nM
Notes: natural RNA segment, single round, ends assumed
Relative to: no-protein control
Direction: higher = stronger binding
All sequences stand within: GGGAGUUCUACAGUCCGACGAUC … UGGAAUUCUCGGGUGCCAA
Target sequence (chain): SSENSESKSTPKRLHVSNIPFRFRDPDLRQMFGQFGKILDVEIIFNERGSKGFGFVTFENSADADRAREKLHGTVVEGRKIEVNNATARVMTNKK
`GCCUCAAUGUGAAUCAGACCCUACCCCACCACGAUGUGGCCCUGGCCUGCUGGGCUCUCCACCUCAGCCUUGGAUAAUGCUGUUGCCUCAUCUAUAACAUGCAUUUGUCU` — result for “RBNS enrichment (R)”: 0.461.
`ACAUCAUUCUUUAAAAGAAUAGUUUAAUACUUUUGGUUAUUCCAAUCUUCAAUGUUAACCCAAAGGAUUCUGAGAUAAAAAUUAUGUGUCAUCUAAACUUCAGUUUACAG`: “RBNS enrichment (R)” 0.401.
Under “RBNS enrichment (R)”, `AUUCUGUAGCUUUAACUUGUAAACCACAUCUUUUUUGCACUUUUUUUAUAAGCAAAAACGUGCCGUUUAAACCACUGGAUCUAUCUAAAUGCCGAUUUGAGUUCGCGACA` is recorded as 0.374.
`AACUGGAAACCUGUCUCUCUCUGUUUGUGGACAAAUGAGAGGUUUCAGAUGCAGUGAGGAGCACUGAGUCCUUUGCAAUGUUUUCAGCCAUAGACCUUUGGGUCUGCCUG` — result for “RBNS enrichment (R)”: 0.454.
For `GAAGUUGGUCCUAGUUUACAUCUUAGAGGAAUGUAUAUGUAUGUUUUACAUGCCUAAAUAUCUGCAGGUUUUCUUACAGGUAAAGCGAAGUGCUUUGAAAAGUUUAGAUU`, “RBNS enrichment (R)” read 0.621.
Under “RBNS enrichment (R)”, `AUAUGGCAGUAAAAAUGUGAUUACUUUGUAUGUACAUUAACCAAAACCAGUGAAGUUUGAUGGACUGUGCAUAGAGUUUUGCAGCUUUUGAGUAGUGUGACAGAGUUUGC` is recorded as 0.573.
Under “RBNS enrichment (R)”, `UUUGUAGCCUUCCGGCUACAUCCCCUUCCCAGUUGUGGACCAAUGCAUCUCUAGAGACAGAUACUAUCCAGCCAUCUGUCUGCCUUGUCUUUUGCAGUACUUCUCCAUGC` is recorded as 0.307.
`CUCCAUUCCUGAGCAGGACUAGUCCGUCCCAGAGGGCCACUGCUAGACUUCCUGUUAGGGGCAAUGUGUUCAUUAUAAAGGCAUAAGGACACCACACCAGCUUGUUGGUU`: “RBNS enrichment (R)” 0.519.
For `GUGGGCAAACACUUCUCAGCUGGUCCAUUUUUACAACGAUUGAAAAUCUAGAAGCCUUCUCAUGUUGCCUGGUCACCUACUCCAUAAAGUGUGGGCCUUGCCUGGAAAGG`, “RBNS enrichment (R)” read 0.349.
`AUUUAAUGAAGUAUUGCUAACUGAAGCCAGUUUGACUUGUGAGAGAGGUUAGACUGACAGAAGGUGUGCAGCCUGAUUUACAACCAAACCCUGAACCCUUUUGAAGAACA`: “RBNS enrichment (R)” 0.714.
Under “RBNS enrichment (R)”, `GGCGCCUUAGAGAUGGGCGAGUGUCUGAGAAGACCUGCUCGGAGCACACUGCACUCUUUGAUCCUCCCUGGUGUCUGGUGCCUUCUAUCUUAAAAAACAUGACAAGUCAU` is recorded as 0.391.
Under “RBNS enrichment (R)”, `UUUUGUAUUCAUAAGCUAAUAUGUUAGAGUUCUAUGUAGUUUUCUCUUGUGCACCUGCAUCAGAAAACCAUAGGACAACAAGGUGGCUAGGCAGUUAUCACCCCUCUGCU` is recorded as 0.358.

Sample 2
Target: CCND2, cyclin fold, Cln2 fusion (human)
Method: yeast growth competition, sequencing
Matrix: yeast
Notes: weak parent motif
Relative to: not given
Direction: higher = stronger binding
Starting sequence: MICAL3 docking peptide (human); LQLRRQLSFSEDS
For `LQLRRQLHFSEDS [S8H]`, “normalised enrichment score” read 0.641.
`LILRRQLSFSEDS [Q2I]` — result for “normalised enrichment score”: -0.00896.
`LQLRAQLSFSEDS [R5A]`: “normalised enrichment score” 0.208.
`LQLRRQLNFSEDS [S8N]`: “normalised enrichment score” 0.11.
`LQLRRQLGFSEDS [S8G]`: “normalised enrichment score” 0.0228.
Under “normalised enrichment score”, `LQLRRQLSFQEDS [S10Q]` is recorded as -0.0521.
Under “normalised enrichment score”, `LQLRRQLSFSEFS [D12F]` is recorded as 0.206.
`LQLRRQLSFWEDS [S10W]`: “normalised enrichment score” 0.0593.
`LQLRRQLSFSEQS [D12Q]` — result for “normalised enrichment score”: 0.173.
`LQLRRQLSESEDS [F9E]`: “normalised enrichment score” 0.152.
Under “normalised enrichment score”, `LQLDRQLSFSEDS [R4D]` is recorded as 0.127.
`LQLRRQLRFSEDS [S8R]` — result for “normalised enrichment score”: -0.371.
`LQLRRQQSFSEDS [L7Q]`: “normalised enrichment score” -0.0208.
`LQLRRQLKFSEDS [S8K]`: “normalised enrichment score” 0.361.
For `LSLRRQLSFSEDS [Q2S]`, “normalised enrichment score” read 0.312.
`LQLRWQLSFSEDS [R5W]` — result for “normalised enrichment score”: -0.0935.
`LQLRMQLSFSEDS [R5M]` — result for “normalised enrichment score”: 0.133.
For `LQLRRQLCFSEDS [S8C]`, “normalised enrichment score” read 0.0714.
For `LQKRRQLSFSEDS [L3K]`, “normalised enrichment score” read 0.0233.
For `LQLRRQLSFSLDS [E11L]`, “normalised enrichment score” read 0.387.
Under “normalised enrichment score”, `LQLRRQLDFSEDS [S8D]` is recorded as 0.109.
`LQLRRQLSVSEDS [F9V]`: “normalised enrichment score” 0.0201.
`LQLRVQLSFSEDS [R5V]` — result for “normalised enrichment score”: 0.181.
`LQLRRQLSTSEDS [F9T]` — result for “normalised enrichment score”: 0.0964.
Under “normalised enrichment score”, `LQLRRQLSFSFDS [E11F]` is recorded as -0.183.

Sample 3
Target: Histone acetyltransferase KAT6A, winged helix 2, GST fusion (KAT6A, Homo sapiens, UniProt Q92794, residues 85-181)
Method: protein binding microarray
Form: double-stranded DNA, one strand shown
Matrix: in vitro
Tested at: not given
Notes: 8-mer, flanks averaged, mean of 2 arrays, mostly near background
Relative to: not given
Direction: higher = stronger binding
Construct (chain): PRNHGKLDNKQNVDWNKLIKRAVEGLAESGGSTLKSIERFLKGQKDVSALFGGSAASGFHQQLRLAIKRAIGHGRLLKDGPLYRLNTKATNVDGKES
`AGGGACGG` gave an E-score of -0.0939.
The E-score of `CTATCGTA` is reported as -0.162.
For `AAGAAAAA`, the E-score was 0.21.
The E-score of `AAACGTCC` is reported as -0.142.
`ACAGAAGA` gave an E-score of -0.0421.
`ATACGTAC` has an E-score of -0.25.
`AAACCGAC` has an E-score of 0.121.
For `GTGCTTTA`, the E-score was 0.0501.
With `ACGAAACC` the E-score was 0.0823.
`GAGGTTGA` has an E-score of -0.105.
`CACATAAA` has an E-score of 0.0146.
For `ATTTATGG`, the E-score was 0.0152.
With `CCGGGTGA` the E-score was 0.115.
The E-score of `ACCAATCG` is reported as 0.00228.
`CTACGTAA` gave an E-score of -0.113.
The E-score of `ACTGTCTC` is reported as -0.0811.
`TAAGGCCA` has an E-score of -0.0724.
With `GCATGTGA` the E-score was -0.021.
`ATGGGATG` gave an E-score of -0.173.
`CTACGCCA` has an E-score of -0.0702.
With `CGTTGGGC` the E-score was -0.064.
The E-score of `CGTAATTA` is reported as -0.0953.
The E-score of `ATATGTTA` is reported as -0.129.
The E-score of `GGTAATCA` is reported as -0.0954.
For `CAGAGATA`, the E-score was -0.0156.

Sample 4
Target: Prothrombin, mature alpha-thrombin (F2, Homo sapiens, UniProt P00734)
Method: aptamer microarray, sandwich
Form: DNA with 2'F-ANA
Matrix: in vitro
Tested at: 200 nM
Notes: whole 15-mer aptamer, many near background
Together with: Cy3 exosite-II aptamer, 400 nM
Direction: higher = stronger binding
Oligonucleotide: GGTTGGTGTGGTTGG
`2'F-ANA at 1 2 3 4 5 6 7 8 12 15`: “mean fluorescence intensity” 114 a.u.
For `2'F-ANA at 4 5 6 8 11 12 13`, “mean fluorescence intensity” read 78.6 a.u.
`2'F-ANA at 1 2 5 7 8 11 12 13 14 15` — result for “mean fluorescence intensity”: 93.6 a.u.
For `2'F-ANA at 1 2 4 7 8 10 13 14`, “mean fluorescence intensity” read 42.3 a.u.
`2'F-ANA at 1 2 3 11 15` — result for “mean fluorescence intensity”: 203 a.u.
`2'F-ANA at 1 3 8 9 13`: “mean fluorescence intensity” 262 a.u.
`2'F-ANA at 1 2 4 5 9 10 12 13 14`: “mean fluorescence intensity” 60 a.u.
`2'F-ANA at 4 5 7 9 10 12 14 15`: “mean fluorescence intensity” 49.1 a.u.
`2'F-ANA at 1 2 7 9 10 12 13`: “mean fluorescence intensity” 251 a.u.
For `2'F-ANA at 4 6 8 10 11 13`, “mean fluorescence intensity” read 61.6 a.u.
`2'F-ANA at 1 2 3 4 5 6 8 9 11` — result for “mean fluorescence intensity”: 86.4 a.u.
`2'F-ANA at 2 4 7 9 10 13 14`: “mean fluorescence intensity” 69.4 a.u.
`2'F-ANA at 1 2 3 4 6 7 8 9 10 13`: “mean fluorescence intensity” 57.6 a.u.
`2'F-ANA at 1 3 4 6 8 9 10 13 15`: “mean fluorescence intensity” 58.2 a.u.
`2'F-ANA at 1 5 7 9`: “mean fluorescence intensity” 114 a.u.
`2'F-ANA at 1 2 7 8 9 11 13`: “mean fluorescence intensity” 145 a.u.
Under “mean fluorescence intensity”, `2'F-ANA at 1 2 7 9 12 14 15` is recorded as 89.9 a.u.
`2'F-ANA at 1 2 4 7 9 10 13` — result for “mean fluorescence intensity”: 43.5 a.u.
`2'F-ANA at 4 6 7 8 9 11 12 13` — result for “mean fluorescence intensity”: 319 a.u.
For `2'F-ANA at 1 2 6 8 9 11 13 14`, “mean fluorescence intensity” read 49.5 a.u.

Excerpt of the above (sample 1):
For `GAAGUUGGUCCUAGUUUACAUCUUAGAGGAAUGUAUAUGUAUGUUUUACAUGCCUAAAUAUCUGCAGGUUUUCUUACAGGUAAAGCGAAGUGCUUUGAAAAGUUUAGAUU`, “RBNS enrichment (R)” read 0.621.
Under “RBNS enrichment (R)”, `AUAUGGCAGUAAAAAUGUGAUUACUUUGUAUGUACAUUAACCAAAACCAGUGAAGUUUGAUGGACUGUGCAUAGAGUUUUGCAGCUUUUGAGUAGUGUGACAGAGUUUGC` is recorded as 0.573.
`AUUUAAUGAAGUAUUGCUAACUGAAGCCAGUUUGACUUGUGAGAGAGGUUAGACUGACAGAAGGUGUGCAGCCUGAUUUACAACCAAACCCUGAACCCUUUUGAAGAACA`: “RBNS enrichment (R)” 0.714.
For `GUGGGCAAACACUUCUCAGCUGGUCCAUUUUUACAACGAUUGAAAAUCUAGAAGCCUUCUCAUGUUGCCUGGUCACCUACUCCAUAAAGUGUGGGCCUUGCCUGGAAAGG`, “RBNS enrichment (R)” read 0.349.
`ACAUCAUUCUUUAAAAGAAUAGUUUAAUACUUUUGGUUAUUCCAAUCUUCAAUGUUAACCCAAAGGAUUCUGAGAUAAAAAUUAUGUGUCAUCUAAACUUCAGUUUACAG`: “RBNS enrichment (R)” 0.401.
`AACUGGAAACCUGUCUCUCUCUGUUUGUGGACAAAUGAGAGGUUUCAGAUGCAGUGAGGAGCACUGAGUCCUUUGCAAUGUUUUCAGCCAUAGACCUUUGGGUCUGCCUG` — result for “RBNS enrichment (R)”: 0.454.
Under “RBNS enrichment (R)”, `GGCGCCUUAGAGAUGGGCGAGUGUCUGAGAAGACCUGCUCGGAGCACACUGCACUCUUUGAUCCUCCCUGGUGUCUGGUGCCUUCUAUCUUAAAAAACAUGACAAGUCAU` is recorded as 0.391.
`GCCUCAAUGUGAAUCAGACCCUACCCCACCACGAUGUGGCCCUGGCCUGCUGGGCUCUCCACCUCAGCCUUGGAUAAUGCUGUUGCCUCAUCUAUAACAUGCAUUUGUCU` — result for “RBNS enrichment (R)”: 0.461.
